Assay results of several laboratories.
Compare with care: the assays were run in different laboratories. Numbers after ± are the reported error.
Sequence of UniProt Q96RI1 (whole entry, looked up): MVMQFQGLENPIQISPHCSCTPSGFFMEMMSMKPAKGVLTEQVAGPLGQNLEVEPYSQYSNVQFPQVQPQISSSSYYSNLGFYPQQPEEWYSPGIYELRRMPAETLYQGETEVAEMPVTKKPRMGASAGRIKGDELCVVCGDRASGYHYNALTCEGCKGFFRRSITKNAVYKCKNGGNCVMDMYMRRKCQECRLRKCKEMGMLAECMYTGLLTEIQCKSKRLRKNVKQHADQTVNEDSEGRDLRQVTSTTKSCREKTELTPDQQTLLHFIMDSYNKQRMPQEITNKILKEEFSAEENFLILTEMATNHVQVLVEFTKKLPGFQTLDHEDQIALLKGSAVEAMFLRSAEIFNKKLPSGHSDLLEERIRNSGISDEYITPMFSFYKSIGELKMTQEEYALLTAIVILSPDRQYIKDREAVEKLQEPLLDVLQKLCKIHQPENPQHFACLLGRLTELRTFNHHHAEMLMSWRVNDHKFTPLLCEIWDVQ
Sequence of UniProt Q13671 (whole entry, looked up): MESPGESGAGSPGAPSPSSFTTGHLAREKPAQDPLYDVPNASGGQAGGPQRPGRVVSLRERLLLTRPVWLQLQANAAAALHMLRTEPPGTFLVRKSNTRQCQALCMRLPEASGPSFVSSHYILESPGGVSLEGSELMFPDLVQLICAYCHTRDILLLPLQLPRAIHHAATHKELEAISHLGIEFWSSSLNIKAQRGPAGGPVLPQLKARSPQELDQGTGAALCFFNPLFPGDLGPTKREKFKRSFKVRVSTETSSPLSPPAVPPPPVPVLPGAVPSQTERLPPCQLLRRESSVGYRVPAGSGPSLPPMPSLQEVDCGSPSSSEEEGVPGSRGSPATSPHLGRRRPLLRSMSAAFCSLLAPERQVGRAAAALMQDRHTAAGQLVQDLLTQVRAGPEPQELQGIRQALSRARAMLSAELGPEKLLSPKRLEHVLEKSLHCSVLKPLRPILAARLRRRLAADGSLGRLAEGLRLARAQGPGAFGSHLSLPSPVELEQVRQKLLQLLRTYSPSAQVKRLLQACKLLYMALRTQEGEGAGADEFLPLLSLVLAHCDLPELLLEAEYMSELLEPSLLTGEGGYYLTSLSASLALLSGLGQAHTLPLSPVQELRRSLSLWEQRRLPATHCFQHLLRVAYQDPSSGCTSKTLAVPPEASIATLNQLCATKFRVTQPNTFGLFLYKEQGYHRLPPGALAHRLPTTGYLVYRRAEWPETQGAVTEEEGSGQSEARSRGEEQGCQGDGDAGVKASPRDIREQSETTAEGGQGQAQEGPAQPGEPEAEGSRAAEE
Sequence of UniProt Q14449 (whole entry, looked up): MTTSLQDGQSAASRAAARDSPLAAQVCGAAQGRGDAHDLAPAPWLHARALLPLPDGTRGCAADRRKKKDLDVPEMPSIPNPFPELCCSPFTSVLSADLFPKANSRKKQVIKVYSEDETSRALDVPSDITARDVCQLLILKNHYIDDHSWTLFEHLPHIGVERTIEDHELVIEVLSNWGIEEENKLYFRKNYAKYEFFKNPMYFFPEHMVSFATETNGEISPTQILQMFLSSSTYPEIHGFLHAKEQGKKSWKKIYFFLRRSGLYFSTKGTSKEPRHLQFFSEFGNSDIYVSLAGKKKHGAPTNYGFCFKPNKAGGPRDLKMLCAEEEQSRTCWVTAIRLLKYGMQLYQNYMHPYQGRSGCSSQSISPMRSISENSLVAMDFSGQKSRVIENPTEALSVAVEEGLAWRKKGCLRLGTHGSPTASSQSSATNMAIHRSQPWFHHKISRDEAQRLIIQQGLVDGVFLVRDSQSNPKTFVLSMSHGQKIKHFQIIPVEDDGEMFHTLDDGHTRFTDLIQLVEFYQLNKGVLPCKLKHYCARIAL
Sequence of UniProt Q14451 (whole entry, looked up): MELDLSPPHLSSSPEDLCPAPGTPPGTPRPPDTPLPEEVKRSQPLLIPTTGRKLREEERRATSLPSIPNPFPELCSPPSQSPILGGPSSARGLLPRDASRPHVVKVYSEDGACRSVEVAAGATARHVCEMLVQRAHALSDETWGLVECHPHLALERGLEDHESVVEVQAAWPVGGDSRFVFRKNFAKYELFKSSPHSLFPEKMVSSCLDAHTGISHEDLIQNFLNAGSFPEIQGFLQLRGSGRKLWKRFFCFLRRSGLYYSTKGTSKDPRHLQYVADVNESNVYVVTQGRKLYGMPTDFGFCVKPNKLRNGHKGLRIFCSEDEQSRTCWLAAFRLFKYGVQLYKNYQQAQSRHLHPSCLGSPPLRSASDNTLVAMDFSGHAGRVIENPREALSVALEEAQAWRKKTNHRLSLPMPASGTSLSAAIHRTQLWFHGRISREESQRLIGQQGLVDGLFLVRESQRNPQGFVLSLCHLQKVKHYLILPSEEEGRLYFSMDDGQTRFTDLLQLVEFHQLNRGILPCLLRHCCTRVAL
Sequence of UniProt Q969G3 (whole entry, looked up): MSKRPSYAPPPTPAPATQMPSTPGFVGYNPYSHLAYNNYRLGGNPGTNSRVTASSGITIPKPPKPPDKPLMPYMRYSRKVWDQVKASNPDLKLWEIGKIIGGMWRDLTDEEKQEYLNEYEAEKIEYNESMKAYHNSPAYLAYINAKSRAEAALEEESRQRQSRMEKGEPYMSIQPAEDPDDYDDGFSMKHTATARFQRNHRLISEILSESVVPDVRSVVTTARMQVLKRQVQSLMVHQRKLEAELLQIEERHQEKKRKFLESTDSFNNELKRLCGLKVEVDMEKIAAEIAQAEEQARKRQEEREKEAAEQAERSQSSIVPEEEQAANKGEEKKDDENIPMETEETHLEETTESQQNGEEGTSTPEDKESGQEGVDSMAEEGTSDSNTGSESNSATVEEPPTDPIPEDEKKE
Sequence of UniProt Q15464 (whole entry, looked up): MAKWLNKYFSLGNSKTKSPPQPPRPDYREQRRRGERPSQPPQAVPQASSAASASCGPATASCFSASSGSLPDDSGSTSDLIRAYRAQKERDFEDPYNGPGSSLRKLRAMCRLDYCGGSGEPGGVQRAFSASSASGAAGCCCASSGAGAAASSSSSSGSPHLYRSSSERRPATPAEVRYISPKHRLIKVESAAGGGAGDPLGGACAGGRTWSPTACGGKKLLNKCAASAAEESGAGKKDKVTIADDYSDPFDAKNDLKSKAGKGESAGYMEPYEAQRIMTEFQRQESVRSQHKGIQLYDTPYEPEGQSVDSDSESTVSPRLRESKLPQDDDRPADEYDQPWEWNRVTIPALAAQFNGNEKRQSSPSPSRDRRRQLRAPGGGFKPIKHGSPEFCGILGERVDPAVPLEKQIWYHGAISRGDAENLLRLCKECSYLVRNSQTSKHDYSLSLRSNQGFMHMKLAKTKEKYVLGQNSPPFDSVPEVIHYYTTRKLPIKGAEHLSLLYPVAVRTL
Sequence of UniProt P35348 (whole entry, looked up): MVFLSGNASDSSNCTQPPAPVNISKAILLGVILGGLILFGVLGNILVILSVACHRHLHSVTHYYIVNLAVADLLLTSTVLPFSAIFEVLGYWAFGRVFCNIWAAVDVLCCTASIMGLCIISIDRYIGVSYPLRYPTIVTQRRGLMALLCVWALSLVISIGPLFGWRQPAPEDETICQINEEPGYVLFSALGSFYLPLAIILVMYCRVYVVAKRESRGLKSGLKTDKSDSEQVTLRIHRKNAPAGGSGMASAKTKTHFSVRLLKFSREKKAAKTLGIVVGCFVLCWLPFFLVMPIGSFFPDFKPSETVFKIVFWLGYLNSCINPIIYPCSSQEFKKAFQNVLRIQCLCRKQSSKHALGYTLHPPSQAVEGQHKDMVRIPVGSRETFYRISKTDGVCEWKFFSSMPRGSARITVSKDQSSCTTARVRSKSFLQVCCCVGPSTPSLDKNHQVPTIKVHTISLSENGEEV
Sequence of UniProt Q8GME2 (whole entry, looked up): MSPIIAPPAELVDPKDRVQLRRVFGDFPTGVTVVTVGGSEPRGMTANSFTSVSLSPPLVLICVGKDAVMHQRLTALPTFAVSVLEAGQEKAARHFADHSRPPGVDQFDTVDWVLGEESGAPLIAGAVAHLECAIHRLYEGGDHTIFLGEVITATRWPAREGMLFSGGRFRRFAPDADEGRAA

SMILES	target	test	system	setting	quantity	value
Cc1ncsc1-c1ccc(CNC(=O)[C@@H]2C[C@@H](O)CN2C(=O)[C@@H](NC(=O)C2(F)CC2)C(C)(C)C)c(OCCOc2ccc(CN3CCN(c4cc(-c5ccccc5O)nnc4N)CC3)cc2)c1	SWI/SNF-related matrix-associated actin-dependent regulator of chromatin subfamily A member 2 (SMARCA2, Homo sapiens, UniProt P51531)	degrader, immunoblot	SMARCA4 wild-type cells	96 h, median of twelve cell lines	DC50	11.1 nM
O=C(O)c1ccccc1Nc1cccc(C(F)(F)F)c1	BK channel alpha subunit (Cavia porcellus, UniProt A0A286XP95)	delayed rectifier K+ current, activator	dispersed vascular smooth muscle cells, guinea pig, AICA arteriole	at +40 mV	EC50	270000 nM
CSCC[C@H](NC(=O)[C@H](CC(=O)O)NC(=O)c1ccc2c(c1)C(=O)OC21c2ccc(N(C)C)cc2Oc2cc(N(C)C)ccc21)C(=O)N[C@@H](CO)C(=O)N[C@@H](CCCCN)C(=O)N[C@@H](CC(=O)O)C(=O)N[C@@H](CCC(=O)O)C(=O)N[C@@H](CO)C(=O)N[C@H](C(=O)N[C@@H](CC(=O)O)C(=O)N[C@@H](Cc1ccc(OP(=O)(O)O)cc1)C(=O)N[C@H](C(=O)N1CCC[C@H]1C(=O)N[C@@H](CCSC)C(=O)N[C@@H](CC(C)C)C(=O)N[C@@H](CC(=O)O)C(=O)N[C@@H](CCSC)C(=O)N[C@@H](CCCCN)C(=O)N[C@@H](CC(=O)O)C(=O)O)C(C)C)C(C)C	SH2 domain-containing adapter protein B, SH2 domain (SHB, Homo sapiens, UniProt Q15464)	binding			Kd	201 nM
COc1cc(Nc2ncc(F)c(Nc3ccc4c(n3)NC(=O)C(C)(C)O4)n2)cc(OC)c1OC	ACAT	enzyme activity, inhibitor	intestine		IC50	> 10000 nM
Cc1cc2nc3c(=O)[nH]c(=O)nc-3n(C[C@H](O)[C@H](O)[C@H](O)COP(=O)(O)OP(=O)(O)OC[C@H]3O[C@@H](n4cnc5c(N)ncnc54)[C@H](O)[C@@H]3O)c2cc1C	NADH-dependent FAD reductase (sgcE6, Streptomyces globisporus, UniProt Q8GME2)	substrate			Km	8.2 ± 0.9 µM
COc1cc2c(cc1OC)-c1c(OC)c(OC)cc3c1[C@H](C2)N(C)CC3	Alpha-1A adrenergic receptor (ADRA1A, Homo sapiens, UniProt P35348)	radioligand binding			Ki	421 nM
CC[C@H](C)[C@H](NC(=O)[C@H](Cc1ccc(OP(=O)(O)O)cc1)NC(=O)[C@H](CCC(=O)O)NC(=O)[C@H](Cc1c[nH]cn1)NC(=O)CNC(=O)[C@H](CC(=O)O)NC(=O)[C@H](CO)NC(=O)[C@H](CO)NC(=O)[C@@H](NC(=O)[C@H](CO)NC(=O)[C@H](CCC(=O)O)NC(=O)c1ccc2c(c1)C(=O)OC21c2ccc(N(C)C)cc2Oc2cc(N(C)C)ccc21)C(C)C)C(=O)N[C@@H](Cc1ccc(O)cc1)C(=O)N[C@H](C(=O)N[C@@H](CC(=O)O)C(=O)N1CCC[C@H]1C(=O)N[C@@H](CCSC)C(=O)N[C@@H](CCC(N)=O)C(=O)N[C@@H](CC(=O)O)C(=O)O)C(C)C	Growth factor receptor-bound protein 7, SH2 domain (GRB7, Homo sapiens, UniProt Q14451)	binding			Kd	1260 nM
CO/N=C1\C[C@]2(C[C@@H]3C[C@@H](C/C=C(\C)C[C@@H](C)/C=C/C=C4\CO[C@@H]5[C@H](O)C(C)=C[C@@H](C(=O)O3)[C@]45O)O2)O[C@H](/C(C)=C/C(C)C)[C@H]1C	Bile acid receptor (NR1H4, Homo sapiens, UniProt Q96RI1)	receptor activity, inhibitor	cells		IC50	9560 ± 3080 nM
CSCC[C@H](NC(=O)CNC(=O)[C@H](Cc1ccccc1)NC(=O)[C@H](CC(=O)O)NC(=O)CNC(=O)c1ccc2c(c1)C(=O)OC21c2ccc(N(C)C)cc2Oc2cc(N(C)C)ccc21)C(=O)N[C@@H](CO)C(=O)N[C@@H](CCCNC(=N)N)C(=O)N[C@@H](CC(=O)O)C(=O)N[C@H](C(=O)N[C@@H](Cc1ccc(OP(=O)(O)O)cc1)C(=O)N[C@@H](CO)C(=O)N[C@H](C(=O)N[C@@H](CC(=O)O)C(=O)N[C@@H](Cc1ccc(O)cc1)C(=O)N[C@@H](Cc1ccc(O)cc1)C(=O)N[C@@H](CCCNC(=N)N)C(=O)N[C@H](C(=O)N[C@@H](CC(=O)O)C(=O)O)C(C)C)[C@@H](C)O)C(C)C	Growth factor receptor-bound protein 14, SH2 domain (GRB14, Homo sapiens, UniProt Q14449)	binding			Kd	1510 nM
CC[C@H](C)[C@H](NC(=O)[C@H](CO)NC(=O)[C@H](C)NC(=O)[C@H](Cc1ccc(OP(=O)(O)O)cc1)NC(=O)[C@H](CCC(=O)O)NC(=O)[C@@H](NC(=O)[C@H](Cc1c[nH]cn1)NC(=O)[C@H](CC(N)=O)NC(=O)[C@H](CC(N)=O)NC(=O)[C@@H]1CCCN1C(=O)[C@H](CCC(=O)O)NC(=O)[C@H](C)NC(=O)[C@H](C)NC(=O)[C@H](CCC(N)=O)NC(=O)[C@@H]1CCCN1C(=O)[C@H](C)NC(=O)[C@@H]1CCCN1C(=O)[C@H](CCCCN)NC(=O)[C@H](CCCCN)NC(=O)CNC(=O)[C@H](CCCCN)NC(=O)[C@@H]1CCCN1C(=O)[C@H](CC(C)C)NC(=O)[C@H](CC(N)=O)NC(=O)[C@H](CC(C)C)NC(=O)[C@H](CC(=O)O)NC(=O)[C@H](C)NC(=O)[C@H](Cc1ccc(OP(=O)(O)O)cc1)NC(=O)[C@@H](NC(=O)[C@@H](NC(=O)[C@@H](N)CC(=O)O)[C@@H](C)CC)[C@@H](C)O)[C@@H](C)O)C(=O)N[C@@H](CCC(N)=O)C(=O)N[C@H](C(=O)N[C@@H](CO)C(=O)O)[C@@H](C)O	Tyrosine-protein phosphatase non-receptor type 11 (PTPN11, Homo sapiens, UniProt Q06124, R111A)	enzyme activity, activator		pH 7.0, 0.2% DMSO, together with: DiFMUP 100 µM, phosphopeptide	EC50	237 ± 4 nM
CC(C)C[C@H](NC(=O)[C@@H](NC(=O)[C@H](CO)NC(=O)[C@H](CO)NC(=O)[C@@H](NC(=O)[C@H](CC(=O)O)NC(=O)[C@H](CC(C)C)NC(=O)[C@@H]1CCCN1C(=O)[C@H](CO)NC(=O)c1ccc2c(c1)C(=O)OC21c2ccc(N(C)C)cc2Oc2cc(N(C)C)ccc21)[C@@H](C)O)C(C)C)C(=O)N[C@@H](Cc1ccc(OP(=O)(O)O)cc1)C(=O)N[C@H](C(=O)N[C@@H](C)C(=O)N[C@H](C(=O)N[C@@H](CCC(N)=O)C(=O)N1CCC[C@H]1C(=O)N[C@@H](CC(N)=O)C(=O)N[C@@H](CCC(=O)O)C(=O)N[C@@H](CC(=O)O)C(=O)O)C(C)C)[C@@H](C)O	Ras and Rab interactor 1, SH2 domain (RIN1, Homo sapiens, UniProt Q13671)	binding			Kd	974 nM
C[C@H]1CN(c2n[nH]c3nc(N[C@H]4CC[C@H](NS(=O)(=O)CCC(F)(F)F)CC4)ncc23)CCO1	SWI/SNF-related matrix-associated actin-dependent regulator of chromatin subfamily E member 1 (Homo sapiens, UniProt Q969G3)	biochemical			IC50	≥ 20000 nM
